Experimental data gathered from unrelated publications.
Lines come from different studies, so protocols differ.

O=C(Nc1nc2cccc(-c3ccc(CN4CCS(=O)(=O)CC4)cc3)n2n1)C1CC1  patients with first-degree AV block (rheumatoid arthritis patients; oral, 100 mg twice daily, 4 weeks, regardless of relatedness): 0%
C[C@@H](c1ccc2nccn2c1)n1nnc2ncc(-c3cnn(C)c3)nc21  patients with treatment-related AEs (measured: Dyspnea grade ≥3; EGFR-mutant MET-altered NSCLC; oral, dose not given, study): 0%
C[C@@H](Nc1cc(F)cc(F)c1)c1cc(C(=O)N(C)C)cc2c(=O)cc(N3CCOCC3)oc12  patients discontinuing for AE (measured: Pruritus; advanced solid tumour patients; oral, dose not given, dose finding): 0%
CNC(=O)c1ccc(-c2cnc3ncc(Cc4ccc5ncccc5c4)n3n2)cc1F  patients with adverse event (measured: Dyspepsia; cancer patients; oral, 600 mg twice daily, all expansion cohorts, grade 3-4): 0%
CCOc1c([C@H](C)n2nc(C)c3c(N)ncnc32)cc(Cl)c(F)c1[C@@H]1CNC(=O)C1  patients (measured: QTcF change ≤30 ms; previously treated B-cell malignancy; oral, 45 mg once daily, overall population; reference: baseline): 100%
Cc1cc(NC2CCN(C(=O)OC3CCN(C(=O)/C=C/CN(C)C)C3)CC2)n2ncc(C(C)C)c2n1 (stereo not shown)  patients with adverse event (Phase I dose escalation CTCAE v4.0, measured: peripheral oedema; patients with advanced solid tumours; dose not given, TIW dosing any grade): 9%
C=CC(=O)NC1CCN(c2ncc3ncnc(Nc4ccc(Oc5ccc6c(c5)ncn6C)c(C)c4)c3n2)CC1  patients with feces hard (male patients; oral, dose not given, on-treatment adverse events): 0%
COc1ccc([C@@H](O)c2cc(-c3ncnc4cc(N5CCOCC5)ccc34)c(F)cc2Cl)nn1  patients with investigation abnormalities (locally advanced rectal cancer patients; 250 mg, drug-related adverse events, together with: capecitabine and radiotherapy): 50%
COc1cc(Nc2ncc3c(n2)-c2ccc(Cl)cc2C(c2c(F)cccc2OC)=NC3)ccc1C(=O)O  patients with adverse event (measured: increased ALP, grade 1; cancer patients, phase 1/2; oral, dose not given, together with: pembrolizumab): 25%
CNC(=O)c1cc(Oc2ccc(NC(=O)Nc3cc(C(C)(C)C)nn3-c3ccc4ncccc4c3)c(F)c2)ccn1  patients with grade 3 musculoskeletal disorders (patients; oral, dose not given, cycles 1 and 2, High AUC subgroup): 17%
